Measured values collected from several papers.
Compare with care: the assays were run in different laboratories. Numbers after ± are the reported error.
SCTR: Secretin receptor (SCTR, Homo sapiens, UniProt P47872)
POLB I260M: DNA polymerase beta (POLB, Homo sapiens, UniProt P06746, I260M)
T1: ssRNA, CCUG repeat; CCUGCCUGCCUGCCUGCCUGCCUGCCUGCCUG
T2: ssRNA FMR1 5' UTR CGG repeat (Homo sapiens); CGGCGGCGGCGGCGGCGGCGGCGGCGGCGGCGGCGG

With `CCCCCCc1ccc(Oc2ccccc2N)c(O)c1` the residence time was 68.5 min (Enoyl-[acyl-carrier-protein] reductase [NADPH] FabI (Staphylococcus aureus, UniProt Q6GI75); enzyme activity, inhibitor, progress curve kinetics).
The kinact/KI of `Cc1ccc(NC(=O)CNS(=O)(=O)c2nc(-c3ccc(OC(F)(F)F)cc3)cc(C(F)(F)F)n2)cc1` is reported as 14000 M⁻¹ s⁻¹ (WRN (Homo sapiens, UniProt Q14191); enzyme activity, inhibitor).
`COc1ccc(-c2cc(C(F)(F)F)nc(NCc3ccc(Cl)cc3)n2)cc1OC` — result for “cooperativity factor alpha”: 5 to 7 (SCTR; affinity cooperativity, allosteric modulator; cells overexpressing SCTR; added: secretin(3-27)).
With `Nc1nc2c(ncn2C2CC(O)C(COP(=O)(O)OP(=O)(O)C(F)P(=O)(O)O)O2)c(=O)[nH]1` (mixture of isomers) the kpol/Kd was 6.4 ± 2.1 M⁻¹ s⁻¹ (POLB I260M; nucleotide incorporation, substrate, single turnover kinetics; dG misincorporation opposite A).
With `CCCCCCCC/C=C\CCCCCCCC(=O)OC[C@H]1OCC=C[C@@H]1OP(=O)(O)S` (stereo partly shown) the Emax was 35% (LPAR2 (Homo sapiens, UniProt Q9HBW0); agonist, TGFα shedding).
With `CCCC(=O)OC(C)CC(=O)OC(C)CC(=O)SCCNC(=O)CCNC(=O)[C@H](O)C(C)(C)COP(=O)(O)OP(=O)(O)OC[C@H]1O[C@@H](n2cnc3c(N)ncnc32)[C@H](O)[C@@H]1OP(=O)(O)O` (stereo partly shown) the acylation stoichiometry was 0.9 ± 0.07 mol CoA/mol enzyme (PHB synthase PhaC (Caulobacter vibrioides, UniProt A0A0H3C9D4); covalent acylation, substrate; 500 µM, 10 s, pH 7.5, 30 °C).
For `COc1cccc(-c2cc(C(F)(F)F)nc(NCc3ccc(F)cc3)n2)c1`, the Emax was 70 ± 4% (SCTR; cAMP accumulation, positive allosteric modulator; CHO-K1 overexpressing SCTR; added: EC10-EC20 secretin peptide mix; baseline: EC95 peptide mix).
`[123I]c1ccc2nc(-c3ccc(-n4ccnn4)nc3)cn2c1` gave an SUVR of 1.28 ± 0.3 (Amyloid-beta precursor protein, amyloid-beta (APP, Homo sapiens, UniProt P05067); SPECT; Alzheimer's disease patients, anterior cingulate; 150 to 240 min; baseline: cerebellum).
With `CCC1(O)CCCN(C(=O)c2cccc(C#N)c2)C1` (stereo not shown) the signal attenuation was 14.9 ± 12.5% (DNA dC->dU-editing enzyme APOBEC-3A (Homo sapiens, UniProt P31941); binding, 1H CPMG NMR).
`CCOC(=O)c1cnc(CNCCc2c[nH]c3cccc(C)c23)s1` has an Emax of 64.8% (HTR2A (Homo sapiens, UniProt P28223); β-arrestin recruitment, agonist).
`C=C1[C@H](O)CC(=C/C=C2\CCC[C@]3(C)[C@@H]([C@@H](C)CCCCO)CC[C@@H]23)C[C@H]1O` has a Ki ratio of 3 (Vitamin D3 receptor (Rattus norvegicus, UniProt P13053); binding, radioligand competition; baseline: compound over 1α,25-dihydroxyvitamin D3).
The Kd of `N=C(NCCCCNc1nc(N)nc(N)n1)c1ccc(C(=N)NCCCCNc2nc(N)nc(N)n2)cc1` is reported as > 200 µM (T1, ssRNA, CCUG repeat; ITC; pH 7.0, 25 °C, NaCl 300 mM, lower limit, per strand).
`Nc1nc2c(ncn2[C@H]2C[C@H](O)[C@@H](COP(=O)(O)OP(=O)(O)[C@@H](Cl)P(=O)(O)O)O2)c(=O)[nH]1` gave a kpol of 4.8 s⁻¹ (DNA polymerase beta (POLB, Homo sapiens, UniProt P06746); substrate, quench-flow kinetics; pH 8.0, 37 °C, incorporation opposite C in gapped DNA).
`CN(C(=O)CCc1nc(CN2CCN(C(=O)c3ccc(Br)o3)CC2)no1)C1CCCCC1` — result for “current fold increase”: 1.22 ± 0.11 (KCNQ2 (Homo sapiens, UniProt O43526); potassium current, activator, whole-cell patch clamp; CHO, stable; 20 µM; baseline: current before compound).
Under “initial rate increase”, `CN1CCN(CC(=O)N2N=C3/C(=C/c4ccccc4)CCCC3C2c2ccccc2)CC1` (mixture of isomers) is recorded as 19% (ALOX15 (Homo sapiens, UniProt P16050); enzyme activity, activator; 10 µM, added: docosahexaenoic acid 25 µM; baseline: no activator).
`CCN(CC)C(=O)c1ccc(O)c(OC)c1`: “bound ligand fraction” 0.13 mol % (Heat shock protein HSP 90-alpha, N-terminal domain (HSP90AA1, Homo sapiens, UniProt P07900); binding, ligand-observed NMR titration; ligand to protein ratio 707).
With `Cc1cn(C2CC(O)C(COP(=O)(O)OP(=O)(O)C(Cl)P(=O)(O)O)O2)c(=O)[nH]c1=O` (mixture of isomers) the kpol was 3.2 ± 0.3 s⁻¹ (POLB I260M; nucleotide incorporation rate, substrate, single-turnover kinetics; single-nucleotide gapped DNA; 37 °C, I260M, correct incorporation, added: dTTP opposite template A).
`Cc1ccc(C(=O)Nc2ccc(CP(=O)(O)O)cc2CP(=O)(O)O)cc1NC(=O)c1cccc(NC(=O)Nc2cccc(C(=O)Nc3cc(C(=O)Nc4ccc(CP(=O)(O)O)cc4CP(=O)(O)O)ccc3C)c2)c1` gave a Vmax of 45.7 ± 4.2 mAU/min (F11 (Homo sapiens, UniProt P03951); enzyme activity, inhibitor; 100 µM, added: S-2366 substrate).
`CCOC(=O)c1c(N)sc2c1CCN(Cc1ccccc1)C2` has a maximal inhibition of 80.2% (Carbamate kinase (Giardia intestinalis, UniProt A8BB85); enzyme activity, inhibitor, luminescence, ATP detection; Giardia lamblia).
With `CCCN(CC(=O)N(CC(N)=O)Cc1cn(CCCNC(=O)CCCOc2cccc(-c3nc4ccc(-c5nc6ccc(N7CCN(C)CC7)cc6[nH]5)cc4[nH]3)c2)nn1)C(=O)CNCc1cn(CCCNC(=O)CCCOc2cccc(-c3nc4ccc(-c5nc6ccc(N7CCN(C)CC7)cc6[nH]5)cc4[nH]3)c2)nn1` the IC50 was 18 µM (T2, ssRNA FMR1 5' UTR CGG repeat (Homo sapiens); protein displacement, competitor, TR-FRET).
`O=C(O)CCCCC(=O)NNC(=O)c1ccccn1` — result for “complex formation with PHD2”: “no binding” (Egl nine homolog 1 (EGLN1, Homo sapiens, UniProt Q9GZT9); non-denaturing ESI-MS; 15 µM, PHD2 15 µM, added: Fe(II) 30 µM).
Under “maximal current density”, `O=C(c1cc2c(s1)CCCCC2)N1CCC(n2c(=O)[nH]c3ccccc32)CC1` is recorded as 11.7 ± 1.02 pA/pF (Trpc6 (Mus musculus, UniProt Q61143, E672D); ion current, agonist, whole-cell patch clamp; 100 µM, E672D mutant).
Under “association rate constant”, `CNc1ccccc1C(=O)O[C@H]1C[C@H](n2cnc3c(N)ncnc32)O[C@@H]1COP(=O)(O)OP(=O)(O)O` is recorded as 2e+06 ± 110000 M⁻¹ s⁻¹ (Unconventional myosin-Va (Gallus gallus, UniProt Q02440, D297C/G292C/I296C/S293C/V295G); stopped-flow FRET; 10 °C, added: MgCl2 10 mM).
`Cc1cn([C@H]2C[C@H](O)[C@@H](COP(=O)(O)OP(=O)(O)C(F)(F)P(=O)(O)O)O2)c(=O)[nH]c1=O` gave a kpol of 5.8 ± 1.4 s⁻¹ (POLB I260M; nucleotide incorporation rate, substrate, single-turnover kinetics; single-nucleotide gapped DNA; 37 °C, I260M, correct incorporation, added: dTTP opposite template A).
With `COc1cccc(-c2cc(C(F)(F)F)nc(NCc3ccccc3)n2)c1` the Emax was 62 ± 11% (SCTR; cAMP accumulation, positive allosteric modulator; CHO-K1 overexpressing SCTR; added: EC10-EC20 secretin peptide mix; baseline: EC95 peptide mix).
With `Nc1nc2c(ncn2[C@H]2C[C@H](O)[C@@H](COP(=O)(O)OP(=O)(O)C(Br)(Br)P(=O)(O)O)O2)c(=O)[nH]1` the kpol/Kd was 5.1 ± 2.6 M⁻¹ s⁻¹ (POLB I260M; nucleotide incorporation, substrate, single turnover kinetics; dG misincorporation opposite A).
Under “target to normal ratio”, `N#Cc1cc(C(=O)OCC[18F])c(C(F)(F)F)nc1N1CCN(C(=O)Cc2ccccc2)CC1` is recorded as 1.12 ± 0.03 (P2Y purinoceptor 12 (P2ry12, Mus musculus, UniProt Q9CPV9); PET; mouse, chronic kainate epilepsy, brain).
`NS(=O)(=O)c1ccc(NC(=O)c2ccccc2SSc2ccccc2C(=O)Nc2ccc(S(N)(=O)=O)cc2)cc1` gave a Hill coefficient of 1.2 ± 0.05 (Gag-Pol polyprotein, integrase core 50-213 (gag-pol, Human immunodeficiency virus type 1 group M subtype B, UniProt P04585); DNA binding, fluorescence anisotropy; integrase CC; compound:IN ratio 3:1, added: 10 mM Mn2+, U5 DNA).

Excerpt of the above:
With `CCCCCCCC/C=C\CCCCCCCC(=O)OC[C@H]1OCC=C[C@@H]1OP(=O)(O)S` (stereo partly shown) the Emax was 35% (LPAR2 (Homo sapiens, UniProt Q9HBW0); agonist, TGFα shedding).
With `CCCC(=O)OC(C)CC(=O)OC(C)CC(=O)SCCNC(=O)CCNC(=O)[C@H](O)C(C)(C)COP(=O)(O)OP(=O)(O)OC[C@H]1O[C@@H](n2cnc3c(N)ncnc32)[C@H](O)[C@@H]1OP(=O)(O)O` (stereo partly shown) the acylation stoichiometry was 0.9 ± 0.07 mol CoA/mol enzyme (PHB synthase PhaC (Caulobacter vibrioides, UniProt A0A0H3C9D4); covalent acylation, substrate; 500 µM, 10 s, pH 7.5, 30 °C).
